{"data": "Measured values collected from several papers", "note": "Every numbered part comes from another study and shows a few of its results, in no order. Changes are numbered by the printed parent chain."}
{"data": "Study 1", "target": "Prothrombin, mature alpha-thrombin (F2, Homo sapiens, UniProt P00734)", "technique": "aptamer microarray, sandwich", "molecule type": "DNA with 2'F-ANA", "medium": "in vitro", "tested at": "200 nM", "notes": "whole 15-mer aptamer, many near background", "together with": "Cy3 exosite-II aptamer, 400 nM", "direction": "higher = stronger binding", "sequence": "GGTTGGTGTGGTTGG"}
{"Modification": "2'F-ANA at 1 2 8 12 13 14", "mean fluorescence intensity [a.u.]": 68.9}
{"Modification": "2'F-ANA at 2 3 5 8 9 11 13", "mean fluorescence intensity [a.u.]": 84.4}
{"Modification": "2'F-ANA at 2 6 7 11 13 14 15", "mean fluorescence intensity [a.u.]": 104}
{"Modification": "2'F-ANA at 1 3 7 8 9 10 11 13 14 15", "mean fluorescence intensity [a.u.]": 77.9}
{"Modification": "2'F-ANA at 2 5 6 8 10 13 15", "mean fluorescence intensity [a.u.]": 82}
{"Modification": "2'F-ANA at 3 5 9 13 14", "mean fluorescence intensity [a.u.]": 115}
{"Modification": "2'F-ANA at 1 2 7 8 12 13 14 15", "mean fluorescence intensity [a.u.]": 81.1}
{"Modification": "2'F-ANA at 3 4 6 8 10 13", "mean fluorescence intensity [a.u.]": 207}
{"Modification": "2'F-ANA at 3 8 9 10 12 14", "mean fluorescence intensity [a.u.]": 399}
{"Modification": "2'F-ANA at 1 2 3 4 5 6 7 8 9", "mean fluorescence intensity [a.u.]": 76}
{"Modification": "2'F-ANA at 1 4 6 7 10 12 14", "mean fluorescence intensity [a.u.]": 48.2}
{"Modification": "2'F-ANA at 1 3 5 6 8 11 12 14", "mean fluorescence intensity [a.u.]": 45}
{"Modification": "2'F-ANA at 2 6 12 15", "mean fluorescence intensity [a.u.]": 663}
{"Modification": "2'F-ANA at 3 4 7 8 9 14", "mean fluorescence intensity [a.u.]": 364}
{"Modification": "2'F-ANA at 1 3 4 7 8 10 11 14 15", "mean fluorescence intensity [a.u.]": 50.5}
{"Modification": "2'F-ANA at 3 9 11 12 13 14 15", "mean fluorescence intensity [a.u.]": 601}
{"Modification": "2'F-ANA at 1 2 3 4 7 9 12 13 14", "mean fluorescence intensity [a.u.]": 65.2}
{"Modification": "2'F-ANA at 1 2 5 6 7 9 10 13 14", "mean fluorescence intensity [a.u.]": 50.2}
{"Modification": "2'F-ANA at 3 4 6 8 9 12 13 15", "mean fluorescence intensity [a.u.]": 576}
{"Modification": "2'F-ANA at 1 3 7 8 9 10 11 12 13", "mean fluorescence intensity [a.u.]": 105}
{"Modification": "2'F-ANA at 1 2 5 6 7 8", "mean fluorescence intensity [a.u.]": 62}
{"Modification": "2'F-ANA at 1 3 4 5 7 11 12 14 15", "mean fluorescence intensity [a.u.]": 66.2}
{"Modification": "2'F-ANA at 1 4 7 9 10 11 15", "mean fluorescence intensity [a.u.]": 82.1}
{"Modification": "2'F-ANA at 1 3 4 8 9 11 12 13", "mean fluorescence intensity [a.u.]": 235}
{"data": "Study 2", "target": "CCND2, cyclin fold, Cln2 fusion (human)", "technique": "yeast growth competition, sequencing", "medium": "yeast", "notes": "weak parent motif", "reference": "not given", "direction": "higher = stronger binding", "starting sequence": "CDKN1B docking peptide (human); PSACRNLFGPVDH; partner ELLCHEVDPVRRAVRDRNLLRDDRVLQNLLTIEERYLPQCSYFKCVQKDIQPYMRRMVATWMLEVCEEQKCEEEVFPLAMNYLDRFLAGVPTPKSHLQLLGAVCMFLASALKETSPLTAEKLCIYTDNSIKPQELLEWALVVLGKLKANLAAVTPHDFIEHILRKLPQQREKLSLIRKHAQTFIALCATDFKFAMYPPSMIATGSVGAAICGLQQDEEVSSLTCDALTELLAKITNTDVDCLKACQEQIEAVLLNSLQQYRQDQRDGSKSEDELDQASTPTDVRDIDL"}
{"Substitution": "PKACRNLFGPVDH [S2K]", "normalised enrichment score": 0.234}
{"Substitution": "PSACRNLFGPNDH [V11N]", "normalised enrichment score": 0.415}
{"Substitution": "PSARRNLFGPVDH [C4R]", "normalised enrichment score": 0.468}
{"Substitution": "PSACRNLFGIVDH [P10I]", "normalised enrichment score": 0.0125}
{"Substitution": "YSACRNLFGPVDH [P1Y]", "normalised enrichment score": 0.25}
{"Substitution": "PSACRNGFGPVDH [L7G]", "normalised enrichment score": 0.0519}
{"Substitution": "PSACRNLYGPVDH [F8Y]", "normalised enrichment score": -0.185}
{"Substitution": "PSMCRNLFGPVDH [A3M]", "normalised enrichment score": 0.26}
{"Substitution": "PSYCRNLFGPVDH [A3Y]", "normalised enrichment score": -0.0948}
{"Substitution": "ASACRNLFGPVDH [P1A]", "normalised enrichment score": 0.199}
{"Substitution": "PSACQNLFGPVDH [R5Q]", "normalised enrichment score": -0.0839}
{"Substitution": "PSACRNEFGPVDH [L7E]", "normalised enrichment score": 0.00989}
{"Substitution": "PSAKRNLFGPVDH [C4K]", "normalised enrichment score": -0.0577}
{"Substitution": "PSACRNLFGPVYH [D12Y]", "normalised enrichment score": 0.226}
{"Substitution": "PSACRNLFGPVDI [H13I]", "normalised enrichment score": -0.0577}
{"Substitution": "PSACRNKFGPVDH [L7K]", "normalised enrichment score": 0.0211}
{"Substitution": "PSGCRNLFGPVDH [A3G]", "normalised enrichment score": -0.155}
{"Substitution": "PSACRILFGPVDH [N6I]", "normalised enrichment score": 0.319}
{"Substitution": "PSACRNLFGPVMH [D12M]", "normalised enrichment score": 0.232}
{"Substitution": "PSACRNLFGPVAH [D12A]", "normalised enrichment score": 0.625}
{"Substitution": "HSACRNLFGPVDH [P1H]", "normalised enrichment score": 0.251}
{"Substitution": "PSLCRNLFGPVDH [A3L]", "normalised enrichment score": 0.0902}
{"Substitution": "PSACRNVFGPVDH [L7V]", "normalised enrichment score": 0.206}
{"Substitution": "PSACRLLFGPVDH [N6L]", "normalised enrichment score": 0.424}
{"Substitution": "PSACRNLFGPVDP [H13P]", "normalised enrichment score": 0.082}
{"data": "Study 3", "target": "Histone acetyltransferase KAT6A, both winged helices, GST fusion (KAT6A, Homo sapiens, UniProt Q92794, residues 1-181)", "technique": "protein binding microarray", "molecule type": "double-stranded DNA, one strand shown", "medium": "in vitro", "tested at": "not given", "notes": "8-mer, flanks averaged, mean of 2 arrays, mostly near background", "reference": "not given", "direction": "higher = stronger binding", "Target sequence (chain)": "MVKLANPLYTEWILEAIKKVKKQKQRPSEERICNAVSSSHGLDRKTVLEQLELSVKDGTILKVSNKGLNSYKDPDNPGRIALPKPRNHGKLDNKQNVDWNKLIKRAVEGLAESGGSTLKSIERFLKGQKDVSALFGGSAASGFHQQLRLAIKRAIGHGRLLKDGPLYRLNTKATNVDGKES"}
{"Sequence": "ATTCTACA", "E-score": -0.0957}
{"Sequence": "ACCCTCTG", "E-score": -0.194}
{"Sequence": "ATATCGTA", "E-score": -0.133}
{"Sequence": "CGACTTTA", "E-score": 0.0263}
{"Sequence": "GACATTAA", "E-score": 0.0171}
{"Sequence": "AGGTTGCG", "E-score": -0.0213}
{"Sequence": "AATGGATG", "E-score": -0.169}
{"Sequence": "ATTTTTGG", "E-score": -0.114}
{"Sequence": "CTACTACC", "E-score": 0.0151}
{"Sequence": "AAGGTATA", "E-score": -0.0871}
{"Sequence": "CGACTAAA", "E-score": -0.05}
{"Sequence": "GCTTACTA", "E-score": 0.0371}
{"Sequence": "GACTGAAC", "E-score": 0.0513}
{"Sequence": "CCACTCGC", "E-score": 0.0179}
{"Sequence": "CATTTTTC", "E-score": -0.0882}
{"Sequence": "ACTCACAT", "E-score": -0.131}
{"Sequence": "ATAATATG", "E-score": 0.01}
{"Sequence": "TAAGCATA", "E-score": -0.0366}
{"Sequence": "ACGACGAC", "E-score": -0.0798}
{"Sequence": "CCTCCCAA", "E-score": -0.0516}
{"Sequence": "AACTGGTC", "E-score": -0.0472}
{"data": "Study 4", "target": "RNA binding protein fox-1 homolog 2, RRM domain, GST-SBP tag (RBFOX2, Homo sapiens, UniProt O43251-10, residues 100-194)", "technique": "RNA Bind-n-Seq", "molecule type": "RNA", "medium": "in vitro", "tested at": "365 nM", "notes": "natural RNA segment, single round, ends assumed", "reference": "no-protein control", "direction": "higher = stronger binding", "constant ends, left off below": "GGGAGUUCUACAGUCCGACGAUC … UGGAAUUCUCGGGUGCCAA", "Construct (chain)": "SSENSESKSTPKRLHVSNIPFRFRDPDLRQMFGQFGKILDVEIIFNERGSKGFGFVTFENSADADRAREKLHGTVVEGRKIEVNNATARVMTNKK"}
{"Sequence": "UGAUCUAGGUACUAAGAUAUUCACUGUGAACCCGAUCUAUUGCACAAAUGGAGUCCUUUUGUAUUACUCUCUAUGGGAUAGCACAAGAUAGCUCUGUAGGAUAGUCUCAG", "RBNS enrichment (R)": 0.329}
{"Sequence": "GAUCCAAGGUAAGAUUGCCUUCAGUCUGAUGUUUGUUCUCAAGGACUUAUCCCCUACAAUAUUCUCCCACUCCAUACUUCUCCUUCUACCCCACCAUGUGCUCCCGUGCA", "RBNS enrichment (R)": 2.11}
{"Sequence": "CAACAUAGAUUCCAUGAUCUUUUUAAUGACAGUACAGACUGAGAUUUGAAGGAAACAUGCACAAAUCUGUAAAACAUAGACCUUCGCUUUAUUUUUGUAAGUAUCACCUG", "RBNS enrichment (R)": 0.274}
{"Sequence": "UCUGUCACUAUGCUCUCUUGCCUUCAGACAGACCAUUCUGAAUUCUCUAAAGGGAAAGGGCUUUUGCAUCUAAUCACAAUAGAGUUGAAAGAGAGGCCUUAGGAUUCUCC", "RBNS enrichment (R)": 0.267}
{"Sequence": "GGAAGAUGCUAAUCCACACAGAAAUGGCAGCCCUUGGUCUGGAAAGGGAAGGCUGCGGGAAUCAUGUUAAGCAGCUUCAUUAAAUGACAUCAUCACGUGUCUAAACAGCU", "RBNS enrichment (R)": 0.541}
{"Sequence": "AUGAAGGAACGAGACAAGCAAAACAGAAAAGCCGAGAAGGAACAUGCAUGACUAAAAAGGCUUGAAGUUGCUUGUGAGCAAGAAGCUUUUUAUGCUGCUUUCUUACAUAG", "RBNS enrichment (R)": 4.98}
{"Sequence": "GGAAGAACCAUGGUAGCUUGUCAGCUGGUAGAAAGAUGGUUUGUAAAAACCAGUUUCUCACGGAGGUUGAACCUAUCUGUGGCUGGACAGUCUUGGAUACUGUCAAGCAA", "RBNS enrichment (R)": 0.283}
{"Sequence": "AUUUGACUGGAAAUGUAUAAUGUGUUUUACUGUUGAAAAAAAUAUGAGCUCUGUUUCAACUAACGUGUCAUCUUGUAUUUCUUUCAAGGAAACCAAUUAGAUUCAAAUGU", "RBNS enrichment (R)": 0.37}
{"note": "Some of these lines once more (study 1):"}
{"Modification": "2'F-ANA at 2 6 7 11 13 14 15", "mean fluorescence intensity [a.u.]": 104}
{"Modification": "2'F-ANA at 3 4 6 8 10 13", "mean fluorescence intensity [a.u.]": 207}
{"Modification": "2'F-ANA at 1 3 7 8 9 10 11 13 14 15", "mean fluorescence intensity [a.u.]": 77.9}
{"Modification": "2'F-ANA at 1 2 3 4 5 6 7 8 9", "mean fluorescence intensity [a.u.]": 76}
{"Modification": "2'F-ANA at 3 8 9 10 12 14", "mean fluorescence intensity [a.u.]": 399}
{"Modification": "2'F-ANA at 1 4 7 9 10 11 15", "mean fluorescence intensity [a.u.]": 82.1}
